{"data": "Experimental data collected from several papers", "target": "Peripheral plasma membrane protein CASK (CASK, Homo sapiens, UniProt O14936)", "note": "Lines come from different studies, so protocols differ."}
{"SMILES": "COc1c(Cl)cccc1Nc1c(-c2ccncc2C#C[C@@]2(C)CCCN2C(=O)/C=C/CN(C)C)[nH]c2c1C(=O)NCC2", "assay": "binding, competition with immobilised ligand", "conditions": "3 µM", "measurement": "remaining binding", "result": "82%"}
{"SMILES": "C[C@H]1CN(C(=O)c2cn(-c3ccnc(N)n3)c3cc(C#CC4(O)CCCCC4)ccc23)CCN1", "assay": "cell-free assay, TR-FRET", "conditions": "1 µM", "measurement": "inhibition", "result": "1%"}
{"SMILES": "Cc1cnc2nc1Nc1cccc(c1)COC/C=C/COCc1cc(ccc1OCCN1CCOCC1)N2", "assay": "binding", "conditions": "0.1 µM", "measurement": "remaining binding", "result": "75%"}
{"SMILES": "C=CC(=O)N1CCc2ccc(-n3c(=O)ccc4cnc5ccc(-c6cnn(C)c6)cc5c43)cc21", "assay": "KINOMEscan", "conditions": "1 µM", "how to read": "relative to: DMSO control", "measurement": "remaining binding", "result": "89%"}
{"SMILES": "Nc1ncc2c(n1)-c1c([nH]c3ccc(C4=CCOCC4)cc13)CCC2", "assay": "binding, competition with immobilised ligand", "conditions": "1 µM", "measurement": "remaining binding", "result": "93%"}
{"SMILES": "CNC(=O)C1CCN(c2cc(C)c(F)cc2NC(=O)c2ccc(-c3cc(O)ccc3C)c(C)c2)CC1", "assay": "binding, competition with immobilised ligand", "conditions": "1 µM", "measurement": "remaining binding", "result": "98%"}
{"SMILES": "CCN1CCN(Cc2ccc(C(=O)Nc3ccc(C)c(NCc4cnc5[nH]ccc5c4OC)c3)cc2C(F)(F)F)CC1", "assay": "binding, competition with immobilised ligand", "conditions": "1 µM", "measurement": "remaining binding", "result": "72%"}
{"SMILES": "COc1cc(Nc2nccc(-c3cnn4nc(OC)ccc34)n2)cc(C(F)(F)F)c1", "assay": "binding, competition with immobilised ligand", "conditions": "1 µM", "measurement": "remaining binding", "result": "94%"}
{"SMILES": "CN1CCN(Cc2ccc(-c3ccc(CO[C@H]4CCC[C@@H]4NC(=O)c4cc(-c5cnn(C)c5)cnc4N)cc3)cc2)CC1", "assay": "enzyme activity, inhibitor", "conditions": "0.1 µM", "measurement": "inhibition", "result": "-13%"}
{"SMILES": "CNC1C[S+]2CC[S+]3CC[S+](C1)[Ru-4]321([N]=C=S)[n]2c3ccc(OC)cc3c3c4c(c5cc(F)c[n+]1c5c32)C(=O)NC4=O (stereo not drawn)", "assay": "KinomeScan", "conditions": "0.1 µM", "how to read": "relative to: untreated", "measurement": "remaining binding", "result": "94%"}
{"SMILES": "Cc1ccc(-c2c(/C=C(\\C#N)C(=O)NC(C)C)n(CCCO)c3ncnc(N)c23)cc1", "assay": "cell-free assay, competition with immobilised ligand", "conditions": "1 µM", "measurement": "remaining binding", "result": "53%"}
{"SMILES": "CC(C)=CC1OC(C)(C)C2C=C3C(=O)C(Cl)=CC(O)C3C3C(O)C4OC4C(=O)C132 (stereo not drawn)", "assay": "cell-free assay, competition with immobilised ligand", "conditions": "10 µM", "measurement": "remaining binding", "result": "90%"}
{"SMILES": "C=CC(=O)N1CCCC(n2c(=O)c3ncccc3n(Cc3ccc(Oc4ccccc4)cc3)c2=O)C1 (stereo not drawn)", "assay": "cell-free assay, competition with immobilised ligand", "conditions": "1 µM", "measurement": "remaining binding", "result": "56%"}
{"SMILES": "COc1cc(Nc2nc(C)cc(-c3cnn4nc(OC)ccc34)n2)cc(C(F)(F)F)c1", "assay": "inhibitor", "conditions": "1 µM", "how to read": "relative to: control", "measurement": "remaining activity", "result": "65%"}
{"SMILES": "C=CC(=O)N1Cc2nc(-c3cc(-c4cc(Cl)cnc4Cl)c(F)cc3F)n(-c3ccncn3)c2C1", "assay": "cell-free assay", "conditions": "1 µM", "measurement": "inhibition", "result": "-1.3%"}
{"note": "Repeated from above:"}
{"SMILES": "C=CC(=O)N1CCc2ccc(-n3c(=O)ccc4cnc5ccc(-c6cnn(C)c6)cc5c43)cc21", "assay": "KINOMEscan", "conditions": "1 µM", "how to read": "relative to: DMSO control", "measurement": "remaining binding", "result": "89%"}
